Measurements gathered from unrelated publications.
Each line is one published result; not all experiments were run side by side.
Organism: Klebsiella pneumoniae

SMILES | test | system | setting | MIC
C[C@H]1COc2c(N3CCN(C)CC3)c(F)cc3c(=O)c(C(=O)O)cn1c23 | agar dilution | 09-20, NDM-1 | – | 16 µg/mL
CCCNc1nc(F)c2c(c1O)C(=O)C1=C(O)[C@]3(O)C(=O)C(C(N)=O)=C(O)[C@@H](N(C)C)[C@@H]3C[C@@H]1C2.Cl.Cl | – | tet(A)-carrying | – | 32 µg/mL
CC[C@H](C)[C@H](NC(=O)[C@H](CC(C)C)NC(=O)[C@H](CCCCN)NC(=O)[C@@H](NC(=O)[C@H](C)NC(=O)[C@H](CCC(=O)O)NC(=O)[C@H](Cc1c[nH]cn1)NC(=O)[C@@H](NC(=O)[C@H](CCCCN)NC(=O)[C@H](CCC(N)=O)NC(=O)[C@H](Cc1ccccc1)NC(=O)[C@@H](N)C(C)C)[C@@H](C)CC)[C@@H](C)CC)C(N)=O | CLSI broth microdilution | ATCC 13883 | 18 h, 37 °C | > 128 µM
CS(=O)(=O)Nc1ncn(-c2cc(F)c(COc3ccc(OS(=O)(=O)F)cc3)c(F)c2)n1 | – | – | – | > 50 µM
CN1C(=O)Cc2ccc(F)c(CCNCC[C@H]3CN(c4ccc5c(n4)NC(=O)CO5)C(=O)O3)c21 | – | ATCC 13883 | – | 0.25 µg/mL
CC[C@H](C)CCCCC(=O)N[C@@H](CCN)C(=O)N[C@H](C(=O)N[C@@H](CCN)C(=O)N[C@H]1CCNC(=O)[C@H]([C@@H](C)O)NC(=O)[C@H](CCN)NC(=O)[C@H](CCN)NC(=O)[C@H](CC(C)C)NC(=O)[C@@H](CC(C)C)NC(=O)[C@H](CCN)NC1=O)[C@@H](C)O | broth microdilution | BNCC 359393 | – | > 64 µg/mL
CN(C)c1cc(NC(=O)CNC(C)(C)C)c(O)c2c1C[C@H]1C[C@H]3[C@H](N(C)C)C(O)=C(C(N)=O)C(=O)[C@@]3(O)C(O)=C1C2=O | broth microdilution | KPC-25 producing | – | 2 µg/mL
CC(C)C[C@H](NC(=O)[C@@H](NC(=O)[C@H](CCCNC(=N)N)NC(=O)[C@H](CCC(N)=O)NC(=O)[C@H](Cc1ccccc1)NC(=O)[C@H](Cc1ccc(O)cc1)NC(=O)[C@H](CC(N)=O)NC(=O)[C@H](Cc1c[nH]c2ccccc12)NC(=O)[C@@H](NC(=O)[C@H](CCCNC(=N)N)NC(=O)[C@H](CCCCN)NC(=O)[C@@H](N)Cc1ccccc1)C(C)C)C(C)C)C(=O)N[C@H](C(=O)N[C@@H](CCCCN)C(=O)N[C@@H](CCCCN)C(N)=O)C(C)C | broth dilution | ATCC 700603 | – | 25 µM
CN(C)[C@@H]1C(O)=C(C(N)=O)C(=O)[C@@]2(O)C(O)=C3C(=O)c4c(O)cccc4[C@@](C)(O)[C@H]3C[C@@H]12 | broth microdilution | ATCC 43816 acrAB overexpressor | – | 4 µg/mL
C[C@@H](O)[C@H]1C(=O)N2C(C(=O)O)=C(SCCN=CN)C[C@H]12 | – | NCCP 15782 carbapenem-resistant, Mueller-Hinton broth | 16 h, 37 °C | > 128 µM
CC[C@H](C)[C@H](NC(=O)[C@H](CC(C)C)NC(=O)[C@H](CCCNC(=N)N)NC(=O)[C@H](CC(C)C)NC(=O)[C@@H](NC(=O)[C@@H](NC(=O)[C@H](CCCNC(=N)N)NC(=O)[C@@H](NC(=O)[C@@H](NC(=O)[C@H](CCCNC(=N)N)NC(=O)[C@H](CCCNC(=N)N)NC(=O)[C@H](CCCNC(=N)N)NC(=O)[C@H](CO)NC(=O)[C@@H](N)CCCNC(=N)N)[C@@H](C)CC)[C@@H](C)CC)[C@@H](C)CC)C(C)C)C(=O)N[C@@H](CCCNC(=N)N)C(=O)N[C@@H](CCCNC(=N)N)C(=O)N[C@@H](CO)C(=O)N[C@@H](C)C(=O)N[C@@H](CCCNC(=N)N)C(N)=O | broth microdilution | ATCC 13883 | highest value reported | 4 µM
C[C@@H](O)[C@H]1C(=O)N2C(C(=O)O)=C(SCCN=CN)C[C@H]12 | – | KPC-2 parental strain K2(0787) | – | 128 µg/mL
CCNc1nc(Cl)c2c(c1O)C(=O)C1=C(O)[C@]3(O)C(=O)C(C(N)=O)=C(O)[C@@H](N(C)C)[C@@H]3C[C@@H]1C2.Cl.Cl.Cl | – | tet(A)-carrying | – | 32 µg/mL
CC[C@H](C)CCCCC(=O)N[C@@H](CCN)C(=O)N[C@H](C(=O)N[C@@H](CCN)C(=O)N[C@H]1CCNC(=O)[C@H]([C@@H](C)O)NC(=O)[C@H](CCN)NC(=O)[C@H](CCN)NC(=O)[C@H](CC(C)C)NC(=O)[C@@H](CC(C)C)NC(=O)[C@H](CCN)NC1=O)[C@@H](C)O | broth microdilution | ATCC 43816 wild type, cation-adjusted MHB | – | 1 µg/mL
CC(=O)N[C@@H](CCCCN)C(=O)N[C@@H](CCCCN)C(=O)N[C@@H](CC(C)C)C(=O)N[C@@H](CC(C)C)C(=O)N[C@@H](CCCCN)C(=O)N[C@@H](CC(C)C)C(=O)N[C@@H](CC(C)C)C(=O)N[C@@H](CCCCN)C(=O)N[C@@H](CCCCN)C(=O)N1CCC[C@H]1C(=O)N[C@@H](CC(C)C)C(=O)N[C@@H](CCCCN)C(=O)N[C@@H](CC(C)C)C(=O)N[C@@H](C)C(=O)N[C@@H](CCCCN)C(N)=O | broth microdilution | ATCC 700603 | 18 h, 37 °C, compound alone | > 80 µM
NC(=O)[C@@H]1CC[C@@H]2CN1C(=O)N2OS(=O)(=O)O | – | ATCC 1705 KPC NDM-1 ESBL | compound alone | 16 µg/mL
CN(C)c1ccc(O)c2c1C[C@H]1C[C@H]3[C@H](N(C)C)C(O)=C(C(N)=O)C(=O)[C@@]3(O)C(O)=C1C2=O | broth microdilution | ATCC 43816 acrAB overexpressor | together with: colistin 0.5 mg/L | 1 µg/mL
CCCC(=O)N[C@@H](CCCCN)C(=O)N[C@@H](CCCCN)C(=O)N[C@@H](C)C(=O)N[C@@H](CC(C)C)C(=O)N[C@@H](CCCCN)C(=O)N[C@@H](CC(C)C)C(=O)N[C@@H](C)C(=O)N[C@@H](CCCCN)C(=O)N[C@@H](CCCCN)C(=O)N1CCC[C@H]1C(=O)N[C@@H](CC(C)C)C(=O)N[C@@H](CCCCN)C(=O)N[C@@H](CC(C)C)C(=O)N[C@@H](CC(C)C)C(=O)N[C@@H](CCCCN)C(N)=O | broth microdilution | ATCC 700603 | 18 h, 37 °C, compound alone | > 80 µM
Cc1nc(Cl)c2c(c1O)C(=O)C1=C(O)[C@]3(O)C(=O)C(C(N)=O)=C(O)[C@@H](N(C)C)[C@@H]3C[C@@H]1C2.Cl | – | tet(A)-carrying | – | > 32 µg/mL
CC(=O)N[C@@H](CCCCN)C(=O)N[C@@H](CCCCN)C(=O)N[C@@H](CC(C)C)C(=O)N[C@@H](CC(C)C)C(=O)N[C@@H](CCCCN)C(=O)N[C@@H](CC(C)C)C(=O)N[C@@H](CC(C)C)C(=O)N[C@@H](CCCCN)C(=O)N[C@@H](CCCCN)C(=O)N1CCC[C@H]1C(=O)N[C@@H](C)C(=O)N[C@@H](CCCCN)C(=O)N[C@@H](CC(C)C)C(=O)N[C@@H](CC(C)C)C(=O)N[C@@H](CCCCN)C(N)=O | broth microdilution | ATCC 700603 | 18 h, 37 °C, compound alone | > 80 µM
CC[C@H](C)[C@H](NC(=O)[C@H](Cc1c[nH]c2ccccc12)NC(=O)[C@@H](NC(=O)[C@H](Cc1ccc(O)cc1)NC(=O)[C@@H]1CCCN1C(=O)[C@@H](NC(=O)[C@H](C)N)[C@@H](C)CC)[C@@H](C)CC)C(=O)N[C@@H](Cc1ccc(O)cc1)C(=O)N[C@@H](CCCNC(=N)N)C(=O)N[C@@H](CC(C)C)C(=O)N[C@@H](CC(C)C)C(=O)N[C@@H](CCCNC(=N)N)C(=O)N[C@@H](CCCCN)C(=O)NCC(N)=O | broth microdilution | ATCC 700603 | 18 h, 37 °C | > 15 µM
COc1ccc2ccc(O)c(/C=N/[C@H]3CCCC[C@H]3/N=C/c3c(O)cccc3F)c2c1 | bacterial growth, broth microdilution | carbapenem-resistant | – | > 40 µM
CC[C@H](C)[C@H](NC(=O)CN)C(=O)NCC(=O)N[C@@H](C)C(=O)N[C@H](C(=O)N[C@@H](CC(C)C)C(=O)N[C@@H](CCCCN)C(=O)N[C@H](C(=O)N[C@@H](CC(C)C)C(=O)N[C@H](C(=O)N[C@H](C(=O)NCC(=O)N[C@@H](CC(C)C)C(=O)N1CCC[C@H]1C(=O)N[C@@H](C)C(=O)N[C@@H](CC(C)C)C(=O)N[C@H](C(=O)N[C@@H](CO)C(=O)N[C@@H](Cc1c[nH]c2ccccc12)C(=O)N[C@H](C(=O)N[C@@H](CCCCN)C(=O)N[C@@H](CCCNC(=N)N)C(=O)N[C@@H](CCCCN)C(=O)N[C@@H](CCCNC(=N)N)C(=O)N[C@@H](CCC(N)=O)C(=O)N[C@@H](CCC(N)=O)C(N)=O)[C@@H](C)CC)[C@@H](C)CC)[C@@H](C)O)[C@@H](C)O)C(C)C)C(C)C | broth microdilution | NCTC 5055 | 24 h, 37 °C | 9 µg/mL
CN(C)[C@@H]1C(O)=C(C(N)=O)C(=O)[C@@]2(O)C(O)=C3C(=O)c4c(O)c(NC(=O)CNC(C)(C)C)nc(F)c4C[C@H]3C[C@@H]12.Cl.Cl | – | tet(A)-carrying | – | > 32 µg/mL

For quick reference, copied from above:
SMILES | test | system | setting | MIC
Cc1nc(Cl)c2c(c1O)C(=O)C1=C(O)[C@]3(O)C(=O)C(C(N)=O)=C(O)[C@@H](N(C)C)[C@@H]3C[C@@H]1C2.Cl | – | tet(A)-carrying | – | > 32 µg/mL
CC(=O)N[C@@H](CCCCN)C(=O)N[C@@H](CCCCN)C(=O)N[C@@H](CC(C)C)C(=O)N[C@@H](CC(C)C)C(=O)N[C@@H](CCCCN)C(=O)N[C@@H](CC(C)C)C(=O)N[C@@H](CC(C)C)C(=O)N[C@@H](CCCCN)C(=O)N[C@@H](CCCCN)C(=O)N1CCC[C@H]1C(=O)N[C@@H](C)C(=O)N[C@@H](CCCCN)C(=O)N[C@@H](CC(C)C)C(=O)N[C@@H](CC(C)C)C(=O)N[C@@H](CCCCN)C(N)=O | broth microdilution | ATCC 700603 | 18 h, 37 °C, compound alone | > 80 µM
